# Published values from different studies.
# Parts stem from different laboratories: compare values within a part only. Several values in a cell are separate wells, animals, samples, runs or records.

# Series 1
# Target: Beta-2 adrenergic receptor (ADRB2, Homo sapiens, UniProt P07550)
# Read-out: binding
# Technique: radioligand binding
# Concentration: 10 µM
SMILES,inhibition
C[C@@H]1CN(c2cc(-c3nn(C)c4ccc(OC5(C)CC5)cc34)ncn2)C[C@H](C)O1,13.8%
CN1C(=O)[C@@H](N2CCc3cn(Cc4ccccc4)nc3C2=O)COc2ccccc21,9.59%
O=C(Nc1ccc(-n2nc(-c3cccnc3)cc2C(F)(F)F)cn1)c1ccc(-c2ccccc2)c(F)c1,5.14%
CC(C)(O)c1cncc(-c2nc3ccc(F)cc3n2C2CC2)c1,2.65%

# Series 2
# Target: PABPC1L2, full length, GST fusion (mouse, UniProt A0ABA7IW68)
# Technique: RNAcompete
# Molecule type: RNA
# Sample: in vitro
# Concentration: 20 nM
# Setting: 7-mer, probes averaged, single round
# Relative to: mean of 7-mers
# Direction: higher = stronger binding
# Target sequence (chain): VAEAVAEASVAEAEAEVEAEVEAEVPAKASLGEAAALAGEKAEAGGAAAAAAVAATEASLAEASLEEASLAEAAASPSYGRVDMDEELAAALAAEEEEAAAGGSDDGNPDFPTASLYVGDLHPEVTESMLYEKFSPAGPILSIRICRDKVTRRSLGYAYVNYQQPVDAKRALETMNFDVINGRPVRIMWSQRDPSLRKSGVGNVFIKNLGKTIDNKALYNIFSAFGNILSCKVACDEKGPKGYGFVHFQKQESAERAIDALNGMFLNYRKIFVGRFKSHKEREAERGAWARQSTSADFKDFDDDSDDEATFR
Oligonucleotide,7-mer Z-score
GAAUUAC,-0.139
CUAUGAC,-0.168
CGUCCCU,-0.47
UAUUCAA,-0.15
CGUGCGC,-0.28
UCGGUGG,0.000733
UGAUUGC,-0.177
GGCCCCA,-0.364

# Series 3
# Target: RING finger protein unkempt homolog, zinc fingers 1-6, SBP tag (UNK, Homo sapiens, UniProt Q9C0B0, residues 30-357)
# Sequence of UniProt Q9C0B0 (30-357, looked up): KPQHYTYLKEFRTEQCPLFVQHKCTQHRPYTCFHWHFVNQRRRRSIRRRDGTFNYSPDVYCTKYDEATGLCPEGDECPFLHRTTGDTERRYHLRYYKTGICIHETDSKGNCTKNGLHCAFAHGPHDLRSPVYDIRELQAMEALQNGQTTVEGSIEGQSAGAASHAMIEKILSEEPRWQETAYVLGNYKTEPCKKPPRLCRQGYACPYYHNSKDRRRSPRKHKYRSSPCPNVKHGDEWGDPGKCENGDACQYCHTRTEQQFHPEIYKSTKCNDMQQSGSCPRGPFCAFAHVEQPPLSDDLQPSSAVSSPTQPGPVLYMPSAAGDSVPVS
# Technique: RNA Bind-n-Seq
# Molecule type: RNA
# Sample: in vitro
# Concentration: 100 nM
# Setting: RNA with constant flanks, vertebrate orthologous sites, ends assumed
# Relative to: input RNA pool
# Direction: higher = stronger binding
Oligonucleotide,bound/input enrichment
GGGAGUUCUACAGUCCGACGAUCCUUAAUUAGAGGGUAGUAUAUGUUUCAUAAAGAAGAGUCUUUAUAAUUUUGUUUGUCAUAUAGUAUUUCGGAAUUUGUAUAAUGAGGAUGUUUAGAAGCCAUAUCAAUGGCUUUUUUUAACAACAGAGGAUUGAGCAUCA,0.57 ratio
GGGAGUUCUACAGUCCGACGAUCCUCUAUGGGCCUCGCAGAGUUGAAAUAAUGGAAGAGGAAAGUGAAUAGUAGUCUUCAUUUUAGUAUUUAUGCUUAGGUGUGAAAAUAAAUGUUAUUUGUUGAUCAUUUCUAUAAUCCAGACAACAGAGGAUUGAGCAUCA,0.715 ratio
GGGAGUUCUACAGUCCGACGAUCGCACAUGCCGCUCUCACCAAAAGCAAACUGCCACUUAUCAAAUUUCAUUCAGAGCUGUUUUAGUGUUUCCUAUUCCCUACCCUUCCCCCUCCUUUCAAUGCUGAAAUAUCCUAAGUUGUCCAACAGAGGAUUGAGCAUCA,2.01 ratio
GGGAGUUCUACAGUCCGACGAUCAGGACUAAUUUGAUGAUUUUUAAUUUCUUUUCCUGGUUUUUAAAGCCCUCUUUUUUUAGGCAUAUAUAGUAACAUUAGCAGAAAGAUUUAAUUUGGACAACUUUGAUUCUGAUUCUUAAACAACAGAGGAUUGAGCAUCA,0.881 ratio
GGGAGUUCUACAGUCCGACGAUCAGUAGGAUUAAUUACAUAAUACAAAAGUUGCAGUUGAAAGGAUAUUCAAGUAUGUGUUGGUAGUUACUAAAAGAAUUAUAGCUGUUAUUGCCUUGUAUUUAUAGCCCUUGUUUCAGGUUUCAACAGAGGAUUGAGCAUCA,1.43 ratio
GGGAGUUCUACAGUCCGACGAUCCCCAAAGGCCAAAUCCCCUCCUCCCUUCUACUGCUUCUACCAACUGGAAGCACAGAAAACUAGAAUUUCAUUUAUUUUGUUUUUAAAAAUAUACGUUGAUUUCUUGUAACAUCCAAUAGGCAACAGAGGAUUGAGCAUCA,0.485 ratio
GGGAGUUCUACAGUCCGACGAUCAGGAGGCCUGUCCUGUGGCUGUGUCCAAACACCCCACAGGACUCACUGUCCCAACAAUCCUAAUUGCCUAGAAAUAUCUUUCUCUUACCUGUUAUUUAUCAAUUUUUCCCAGUAUUUUUACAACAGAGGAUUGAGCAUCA,1.54 ratio
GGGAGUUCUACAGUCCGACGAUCUUCAGUCAUGGAGAAAAAGAUAUUAAAAUAGUUUUAUGGCAUUGAUCCUCAUUUAUCAUGUUUACAAAUAUUAGAGUUCUUGUCUACCUACAAGAGGAGUGGAUGCUAAUUACAGAGAAACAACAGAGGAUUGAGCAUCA,0.806 ratio

# Series 4
# Organism: Sarcocystis neurona
# Read-out: parasite growth
# Concentration: 10 µM
# Setting: secondary screen
SMILES,inhibition [%]
O=c1ncc(F)c[nH]1,-0.642
COc1ccc(/C=C/C(=O)Nc2ccccc2C(=O)O)cc1OC,32.1
OC(CCN1CCCC1)(c1ccccc1)C1CCCCC1 (centres unmarked),-3.2

# Series 5
# Target: Phosphorylase b kinase gamma catalytic chain, skeletal muscle/heart isoform (PHKG1, Homo sapiens, UniProt Q16816)
# Read-out: enzyme activity
# Action: inhibitor
# Concentration: 0.5 µM
# Relative to: control
# Construct (Q16816 1-387): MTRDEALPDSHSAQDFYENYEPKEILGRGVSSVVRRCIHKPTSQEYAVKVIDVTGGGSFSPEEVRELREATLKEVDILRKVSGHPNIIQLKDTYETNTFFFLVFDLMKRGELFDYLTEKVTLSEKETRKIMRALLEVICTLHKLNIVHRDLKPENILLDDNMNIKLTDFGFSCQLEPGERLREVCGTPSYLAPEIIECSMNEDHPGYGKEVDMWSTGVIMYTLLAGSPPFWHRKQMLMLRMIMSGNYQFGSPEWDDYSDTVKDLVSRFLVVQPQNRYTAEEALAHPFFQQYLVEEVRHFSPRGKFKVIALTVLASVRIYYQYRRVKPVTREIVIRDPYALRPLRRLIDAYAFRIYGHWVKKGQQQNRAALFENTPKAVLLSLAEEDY
Structure (SMILES),remaining activity [%]
O=C(Nc1cccc(Nc2nccc(Nc3cccc(C(F)(F)F)c3)n2)c1)C1CC1,98.3
Cc1cn(-c2cc(NC(=O)c3ccc(C)c(Nc4nccc(-c5cccnc5)n4)c3)cc(C(F)(F)F)c2)cn1,91
N#C/C(=C\c1ccc(O)c(O)c1)C(=O)NCc1ccccc1,92.6
c1ccc(-c2cnc(Nc3ccc(OCCN4CCCC4)cc3)s2)cc1,45.5
O=C(NC(NC(=S)Nc1ccc(F)c([N+](=O)[O-])c1)C(Cl)(Cl)Cl)C(c1ccccc1)c1ccccc1 (centres unmarked),104
N#Cc1c(NC(=O)c2cccc3ccccc23)sc2c1CCCC2,93.8
O=C1c2ccccc2-c2n[nH]c3cccc1c23,65.8
CCN(CC)C(=O)c1ccc(Nc2nc(OCC3CCCCC3)c3[nH]cnc3n2)cc1,85.9
Cc1nc2cc3nc(-c4cccs4)cnc3cc2n1C,98.2
C[C@@H]1CCN(C(=O)CC#N)C[C@@H]1N(C)c1ncnc2[nH]ccc12,90
CCN(CC)CCNC(=O)c1c(C)[nH]c(/C=C2\C(=O)Nc3ccc(Cl)cc32)c1C,3.19
Cn1nc2c3c(cccc31)C(=O)c1ccccc1-2,86.4
COc1cc2ncnc(Nc3cccc(Cl)c3)c2cc1OC,88.9
Ic1cccc(CSc2nnc(-c3ccncc3)o2)c1,105
CN(C)C[C@H]1CCn2c(c(C3=C(c4cn(C)c5ccccc45)C(=O)NC3=O)c3ccccc32)C1,78.4
CCOc1nc(NC(=O)Cc2cc(OC)ccc2OC)cc(N)c1C#N,94.2
O=C1C(Cl)=C(N2C(=O)CCC2=O)C(=O)c2ccccc21,96.5
COc1cc2ncnc(Nc3ccc(O)c(Br)c3)c2cc1OC,71.9
O=c1cc(-c2cccc3c2Sc2ccccc2S3)oc(N2CCOCC2)c1,106
CCN(CC)CCNC(=O)c1c(C)[nH]c(/C=C2\C(=O)Nc3ccc(F)cc32)c1C,5.12
COc1cc2c(cc1OC)-c1[nH]nc(Nc3cccc(F)c3)c1C2,89
CN([C@@H](Cc1ccc(OS(=O)(=O)c2cccc3cnccc23)cc1)C(=O)N1CCN(c2ccccc2)CC1)S(=O)(=O)c1cccc2cnccc12,93.4
c1ccc(-c2[nH]ncc2-c2ccnc3ccccc23)nc1,94.2
Cc1cc2ncc(-c3ccccc3)nc2cc1C,97.4

# Further values, each from its own experiment
Molecule,target or system,assay,test system,conditions,scale,endpoint,value
"DDX5 (Homo sapiens, UniProt P17844)","DDX17 (Homo sapiens, UniProt Q92841)",cross-linking MS,cell fractions,with: DSSO,,cross-linked residues,K340 to K592
CC[C@@H](C)c1nc2cc(Nc3ccnc4ccc(S(=O)(=O)C(C)C)cc34)ccc2s1.Cl,L929,"caspase activity, Ac-DEVD-pNA absorbance",,"50 µM, 0 h",higher = more activity,caspase-3 activity,0.007 a.u. and 0.018 a.u. and 0.015 a.u. and 0.019 a.u.
"TMED2 (Homo sapiens, UniProt Q15363)","TMED4 (Homo sapiens, UniProt Q7Z7H5)",cross-linking MS,cell fractions,with: DSSO,,cross-linked residues,T123 to K152
CC(C)C[C@@H]1NC(=O)[C@H](CC(C)C)NC(=O)[C@H](CC(C)C)NC(=O)[C@H](CC(C)C)NC(=O)[C@@H](CCC(=O)N2CCCC2)NC(=O)[C@H](C)NC(=O)[C@H](C)NC1=O,,PRP chromatography estimate,"1,9-decadiene/PBS",pH 7.4,,logD,-2.02
"SNRPA1 (Homo sapiens, UniProt P09661)","SF3A3 (Homo sapiens, UniProt Q12874)",cross-linking MS,cell fractions,with: DSSO,,cross-linked residues,K56 to K64
"SNX2 (Homo sapiens, UniProt O60749)","SNX6 (Homo sapiens, UniProt Q9UNH7)",cross-linking MS,cell fractions,with: DSSO,,cross-linked residues,K346 to K230

# Some of these lines once more (series 5):
Structure (SMILES),remaining activity [%]
Cc1nc2cc3nc(-c4cccs4)cnc3cc2n1C,98.2
COc1cc2c(cc1OC)-c1[nH]nc(Nc3cccc(F)c3)c1C2,89
O=C(NC(NC(=S)Nc1ccc(F)c([N+](=O)[O-])c1)C(Cl)(Cl)Cl)C(c1ccccc1)c1ccccc1 (centres unmarked),104
O=C1c2ccccc2-c2n[nH]c3cccc1c23,65.8
